# Assay results pooled from the literature.
# Lines come from different studies, so protocols differ. “And” joins repeats or separate records; there may be more than shown.
# GBA2: Beta-glucosidase (GBA2, Homo sapiens, UniProt Q9HCG7)
# Chain of UniProt Q9HCG7 (whole entry, looked up): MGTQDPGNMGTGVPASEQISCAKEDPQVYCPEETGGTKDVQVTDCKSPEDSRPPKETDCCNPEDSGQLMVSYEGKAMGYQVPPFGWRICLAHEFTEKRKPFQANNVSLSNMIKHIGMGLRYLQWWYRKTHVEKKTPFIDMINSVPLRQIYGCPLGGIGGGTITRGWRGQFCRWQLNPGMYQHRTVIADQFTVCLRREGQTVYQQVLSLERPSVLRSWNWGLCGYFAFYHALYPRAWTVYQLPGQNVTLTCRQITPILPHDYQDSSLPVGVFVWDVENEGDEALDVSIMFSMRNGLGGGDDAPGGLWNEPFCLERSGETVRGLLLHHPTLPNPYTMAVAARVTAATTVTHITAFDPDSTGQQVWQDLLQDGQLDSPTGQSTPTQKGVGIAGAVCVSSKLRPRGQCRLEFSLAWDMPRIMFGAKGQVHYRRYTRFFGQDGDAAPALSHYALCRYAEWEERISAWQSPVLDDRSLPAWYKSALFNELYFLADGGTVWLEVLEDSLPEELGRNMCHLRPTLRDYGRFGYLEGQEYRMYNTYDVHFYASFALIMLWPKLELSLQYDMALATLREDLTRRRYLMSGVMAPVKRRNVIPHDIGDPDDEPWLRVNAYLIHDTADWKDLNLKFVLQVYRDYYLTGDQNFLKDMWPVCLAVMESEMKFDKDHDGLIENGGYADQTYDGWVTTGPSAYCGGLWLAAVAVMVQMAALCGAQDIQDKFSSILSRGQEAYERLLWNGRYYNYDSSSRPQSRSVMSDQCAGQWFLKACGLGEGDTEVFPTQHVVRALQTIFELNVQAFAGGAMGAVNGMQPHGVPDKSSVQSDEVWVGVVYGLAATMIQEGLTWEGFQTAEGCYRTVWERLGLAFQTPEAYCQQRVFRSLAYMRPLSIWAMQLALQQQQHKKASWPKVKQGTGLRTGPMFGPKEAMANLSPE
# HSP90B1: Endoplasmin (HSP90B1, Canis lupus familiaris, UniProt P41148)
# Chain of UniProt P41148 (whole entry, looked up): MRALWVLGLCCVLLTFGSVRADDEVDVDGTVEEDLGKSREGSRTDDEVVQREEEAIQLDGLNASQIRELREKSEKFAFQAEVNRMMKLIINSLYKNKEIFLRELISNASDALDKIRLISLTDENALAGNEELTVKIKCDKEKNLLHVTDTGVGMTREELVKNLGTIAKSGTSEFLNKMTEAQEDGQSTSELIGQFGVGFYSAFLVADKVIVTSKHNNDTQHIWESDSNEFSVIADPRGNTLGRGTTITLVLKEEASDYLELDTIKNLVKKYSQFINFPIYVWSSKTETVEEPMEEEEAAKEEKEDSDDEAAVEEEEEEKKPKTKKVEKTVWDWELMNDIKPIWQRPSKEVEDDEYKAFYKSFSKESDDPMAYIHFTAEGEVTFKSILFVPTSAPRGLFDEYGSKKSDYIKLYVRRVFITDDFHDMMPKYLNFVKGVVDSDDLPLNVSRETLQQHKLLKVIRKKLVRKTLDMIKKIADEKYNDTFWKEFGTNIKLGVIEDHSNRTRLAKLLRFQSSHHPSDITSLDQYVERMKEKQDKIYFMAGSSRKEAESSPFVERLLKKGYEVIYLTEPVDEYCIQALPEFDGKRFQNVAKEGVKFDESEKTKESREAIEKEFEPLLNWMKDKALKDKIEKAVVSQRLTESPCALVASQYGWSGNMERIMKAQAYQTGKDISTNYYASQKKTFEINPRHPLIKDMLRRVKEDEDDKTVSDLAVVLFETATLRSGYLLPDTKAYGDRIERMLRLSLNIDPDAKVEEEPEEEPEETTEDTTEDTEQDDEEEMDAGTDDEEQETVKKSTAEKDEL
# Chain of UniProt O00257 (whole entry, looked up): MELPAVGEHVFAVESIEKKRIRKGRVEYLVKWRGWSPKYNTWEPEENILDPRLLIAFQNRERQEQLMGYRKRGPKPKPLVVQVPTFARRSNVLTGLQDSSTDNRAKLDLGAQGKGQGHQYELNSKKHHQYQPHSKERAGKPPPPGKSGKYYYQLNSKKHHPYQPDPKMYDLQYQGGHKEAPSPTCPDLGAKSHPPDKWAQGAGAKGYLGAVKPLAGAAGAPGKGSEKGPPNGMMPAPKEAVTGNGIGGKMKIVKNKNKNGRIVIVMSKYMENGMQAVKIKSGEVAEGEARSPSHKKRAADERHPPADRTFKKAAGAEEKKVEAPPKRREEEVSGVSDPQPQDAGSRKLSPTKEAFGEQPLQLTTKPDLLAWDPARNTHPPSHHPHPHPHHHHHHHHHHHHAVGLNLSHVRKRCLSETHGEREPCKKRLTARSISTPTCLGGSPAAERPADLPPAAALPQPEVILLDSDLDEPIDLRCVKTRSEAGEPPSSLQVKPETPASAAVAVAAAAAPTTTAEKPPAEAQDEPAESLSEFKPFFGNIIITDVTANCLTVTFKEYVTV
# Chain of UniProt P28161 (whole entry, looked up): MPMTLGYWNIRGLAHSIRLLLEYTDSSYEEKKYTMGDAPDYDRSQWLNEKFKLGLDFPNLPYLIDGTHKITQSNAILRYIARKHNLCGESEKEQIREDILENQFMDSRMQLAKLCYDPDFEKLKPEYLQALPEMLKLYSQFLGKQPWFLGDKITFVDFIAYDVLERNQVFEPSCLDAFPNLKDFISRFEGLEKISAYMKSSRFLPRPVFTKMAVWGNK
# Chain of UniProt P21802 (whole entry, looked up): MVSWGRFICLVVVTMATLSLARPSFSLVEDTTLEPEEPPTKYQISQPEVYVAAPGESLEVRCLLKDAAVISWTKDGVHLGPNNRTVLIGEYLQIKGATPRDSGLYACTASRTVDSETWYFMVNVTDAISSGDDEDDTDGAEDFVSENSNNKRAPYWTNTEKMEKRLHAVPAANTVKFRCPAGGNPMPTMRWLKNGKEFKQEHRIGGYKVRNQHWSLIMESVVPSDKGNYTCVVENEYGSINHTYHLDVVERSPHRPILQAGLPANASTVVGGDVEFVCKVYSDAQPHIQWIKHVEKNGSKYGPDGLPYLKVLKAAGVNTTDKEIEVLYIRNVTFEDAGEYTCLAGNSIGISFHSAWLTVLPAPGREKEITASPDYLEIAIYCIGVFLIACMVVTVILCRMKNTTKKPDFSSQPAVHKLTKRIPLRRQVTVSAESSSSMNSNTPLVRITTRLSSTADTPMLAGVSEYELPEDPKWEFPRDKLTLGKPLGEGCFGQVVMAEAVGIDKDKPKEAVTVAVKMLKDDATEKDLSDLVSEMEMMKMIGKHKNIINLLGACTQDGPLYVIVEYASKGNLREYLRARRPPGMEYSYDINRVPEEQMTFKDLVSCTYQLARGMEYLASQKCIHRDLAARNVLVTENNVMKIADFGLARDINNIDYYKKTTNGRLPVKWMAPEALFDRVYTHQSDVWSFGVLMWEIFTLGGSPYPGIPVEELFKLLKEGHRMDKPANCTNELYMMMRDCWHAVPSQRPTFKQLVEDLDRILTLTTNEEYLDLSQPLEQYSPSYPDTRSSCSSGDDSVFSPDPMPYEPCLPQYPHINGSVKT
# Chain of UniProt Q15849 (whole entry, looked up): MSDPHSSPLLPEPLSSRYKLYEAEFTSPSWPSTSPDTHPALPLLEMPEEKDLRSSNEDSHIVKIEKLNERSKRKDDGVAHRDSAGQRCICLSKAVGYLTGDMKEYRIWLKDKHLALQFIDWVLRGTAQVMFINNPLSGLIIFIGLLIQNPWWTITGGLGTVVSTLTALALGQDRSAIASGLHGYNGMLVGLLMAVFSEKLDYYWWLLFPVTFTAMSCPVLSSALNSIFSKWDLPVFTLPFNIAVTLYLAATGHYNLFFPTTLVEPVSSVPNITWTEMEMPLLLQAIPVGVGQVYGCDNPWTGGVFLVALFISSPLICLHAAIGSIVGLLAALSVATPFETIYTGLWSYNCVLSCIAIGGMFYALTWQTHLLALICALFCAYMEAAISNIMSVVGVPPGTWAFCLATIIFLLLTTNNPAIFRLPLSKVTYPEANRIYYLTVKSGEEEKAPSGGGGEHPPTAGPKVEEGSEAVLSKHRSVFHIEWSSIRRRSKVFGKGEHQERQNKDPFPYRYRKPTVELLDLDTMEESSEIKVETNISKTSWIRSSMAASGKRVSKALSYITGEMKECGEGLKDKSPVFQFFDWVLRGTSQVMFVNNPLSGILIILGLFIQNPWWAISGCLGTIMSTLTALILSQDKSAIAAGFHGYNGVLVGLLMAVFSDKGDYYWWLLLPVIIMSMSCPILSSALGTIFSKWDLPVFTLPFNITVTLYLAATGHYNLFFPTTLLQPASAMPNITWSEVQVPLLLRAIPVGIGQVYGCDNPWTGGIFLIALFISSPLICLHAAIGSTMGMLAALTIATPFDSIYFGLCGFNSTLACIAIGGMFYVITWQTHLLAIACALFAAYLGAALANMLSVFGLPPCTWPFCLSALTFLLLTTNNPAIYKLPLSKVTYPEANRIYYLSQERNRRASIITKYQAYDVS
Structure (SMILES),target,test,system,setting,how to read,selectivity ratio
OC[C@@H]1[C@@H](O)[C@H](O)[C@@H](O)CN1CCCCCOCC1CCCO1 (some centres unmarked),GBA2,,,,reference: GBA3 over target,819
COC(=O)c1c(O)cc(O)c(Cl)c1CCc1ccccc1Cc1ccccc1OC,HSP90B1,fluorescence polarization,,added: FITC-geldanamycin tracer,reference: HSP90B1 over Hsp90α,> 13 fold
C[C@H](NC(=O)[C@H](Cc1ccccc1)NC(=O)c1ccc(C(C)(C)C)cc1)C(=O)N[C@H](C(=O)N[C@@H](CCCC[N+](C)(C)C)C(=O)N[C@@H](CO)C(N)=O)C1CCCC1,"E3 SUMO-protein ligase CBX4 (Homo sapiens, UniProt O00257)",competitive fluorescence polarization,,,reference: Cbx7 over E3 SUMO-protein ligase CBX4,> 4 fold and 4.3 fold
COC(=O)c1c(O)cc(O)c(Cl)c1CCc1cccc(Cc2ccccc2)c1,HSP90B1,fluorescence polarization,,added: FITC-geldanamycin tracer,reference: HSP90B1 over Hsp90α,> 10 fold
CC(OCCCCCN1C[C@H](O)[C@@H](O)[C@H](O)[C@H]1CO)C(C)(C)C (some centres unmarked),GBA2,,,,reference: GBA1 over target,1240
C=C(C)C(=O)Nc1ccc(-c2c(-c3ccc(Oc4cccc(C)n4)cc3)c3c(N)ncnc3n2C)cc1,"Fibroblast growth factor receptor 2 (FGFR2, Homo sapiens, UniProt P21802)","kinact/KI, covalent inhibitor, intact mass spectrometry",,,reference: FGFR2 over FGFR1,~60 fold
CC(=O)N[C@H](Cc1ccc2ccccc2c1)C(=O)N[C@](C)(Cc1ccc(Cl)cc1)C(=O)N[C@H](Cc1c[nH]c2ccccc12)C(=O)N[C@@H](CO)C(=O)N[C@@H](CCCCNC(C)C)C(=O)N[C@H](Cc1ccc(O)cc1)C(=O)N[C@@H](CC(C)C)C(=O)N[C@@H](CCCNC(=N)N)C(=O)N1CCC[C@H]1C(=O)N[C@H](C)C(N)=O,"Gonadotropin-releasing hormone receptor (Gallus gallus, UniProt Q9DDC9)","inositol phosphate production, antagonist",COS-7 transfected,,reference: Gonadotropin-releasing hormone receptor over cGnRH-R-III,153 fold
C=C(CC)C(=O)c1ccc(OCC(=O)NCCCCNC(=O)COc2ccc(C(=O)C(=C)CC)c(Cl)c2Cl)c(Cl)c1Cl,"Glutathione S-transferase Mu 2 (Homo sapiens, UniProt P28161)","enzyme activity, inhibitor",,no preincubation,reference: GSTA IC50 over GSTM IC50,~12 fold
OC[C@@H]1[C@@H](O)[C@H](O)[C@@H](O)CN1CCCCCOCC1CCOC1 (some centres unmarked),GBA2,,,,reference: GBA3 over target,3360
COc1cccc(/C=C2/SC(=N)NC2=O)c1OC,"Urea transporter 2, UT-A2 isoform (SLC14A2, Homo sapiens, UniProt Q15849)","urea transport, inhibitor",,,reference: UT-B IC50 over UT-A2 IC50,~6 fold
CN(C)CCNC(=O)c1cccc2c(NCCCCc3c(N)nc(N)nc3N)c3ccccc3nc12,"RNA E, C–C mismatch","binding, ITC",,,reference: Kd RNA A over Kd RNA E,0.2
